Measured values from different studies.
Each line is one published result; not all experiments were run side by side. Values joined by “and” are separate records of one study, mostly repeats; a detail may differ. ± gives the spread as reported. In brackets after ≈: the same amount, converted by molar mass.

SMILES | tested on | test | test system | setting | how to read | quantity | value
O=c1c2ccccc2[se]n1CCCCCCn1[se]c2ccccc2c1=O |  | shake-flask, RP-HPLC | DMF | 24 h, 25 °C |  | solubility | 17.3 ± 0.32 mg/mL (≈ 36.2 mM)
CC[C@H](C)[C@@H]1NC(=O)[C@H](Cc2ccc(O)cc2)NC(=O)CCCSC[C@@H](C(=O)N(CC(=O)N[C@@H](CC(C)C)C(=O)NCC(N)=O)Cc2ccc(F)cc2)NC(=O)[C@H](CC(N)=O)NC(=O)[C@H](CCC(N)=O)NC1=O |  |  | human, plasma | intravenous, 20 µg, infusion |  | Cmax | 0.000466 µg/mL
Cc1cc(C)n(CCN(CCN)CCCCCCNC(=O)[C@@H](N)Cc2c[nH]cn2)n1.[99Tc+].[C-]#[O+].[C-]#[O+].[C-]#[O+] |  |  | BALB/c nude mice A549 xenograft | intravenous, 4 h | baseline: tumour over muscle | tumour-to-tissue ratio | 9.1 and 9
CC(C)C[C@H](NC(=O)[C@@H](CCCCNC(=O)[C@@H](Cc1ccccc1)NC(=O)CCCCCCCNC(=O)CN1CCN(CC(=O)O)CCN(CC(=O)O)CCN(CC(=O)O)CC1)NC(=O)[C@H](Cc1ccc(O)cc1)NC(=O)[C@H](CO)NC(=O)[C@H](Cc1c[nH]c2ccccc12)NC(=O)[C@H](Cc1c[nH]cn1)NC(=O)[C@@H]1CCC(=O)N1)C(=O)N[C@@H](CCCNC(=N)N)C(=O)N1CCC[C@H]1C(=O)NCC(N)=O [indium-111 labelled] |  |  | male athymic nude mice, DU-145 prostate cancer xenograft, tumour | intravenous, 0.037 MBq, 1 h | baseline: tumour over muscle | tumour-to-tissue ratio | 3.26
Cc1cc(NC(=O)[C@H](O)c2cc(F)cc(F)c2)ccc1-c1cnc(N)c(C(=O)NC(C)C)c1 |  |  | athymic nude Foxn1nu mouse, female, plasma | oral, 100 mg/kg |  | dose-normalised Cmax | 166 ng·kg/mL/mg
CC(C)OCCOCc1ccc(OCC(O)CN(N=O)C(C)C)cc1 (stereo not shown) | Escherichia coli | Ames test | WP2 uvrA | 500 µg/plate, without metabolic activation | baseline: solvent control | revertant fold increase | 0.8 fold
CC(C)(C)C(=O)Nc1ccc2[nH]c(CN3CCC(N(CCCN4CCOCC4)CC4OC(n5cnc6c(N)ncnc65)C(O)C4O)CC3)nc2c1 (stereo not shown) |  |  | male Sprague-Dawley rat, plasma | intravenous, 20 mg/kg, 1 h |  | concentration | 0.37 µg/mL
O=C1C2CC3CC1CC(C(=O)N1CCN(c4ccc([N+](=O)[O-])c5ncccc45)CC1)(C3)C2 | Salmonella typhimurium | Ames test | TA97a | 0.78 µg/well, with S9 |  | mean revertant colonies | 29 colonies/well
O=C1NC2(CC2)COc2ncc(F)cc2[C@H]2COCCN2c2ccn3ncc1c3n2 | CHL |  |  | 300 µg/mL, 4 h, with rat liver S9 |  | numerical aberrations | 0%
C=CC(=O)Nc1cc(Nc2nccc(-c3c[nH]c4ccccc34)n2)c(OC)cc1N(C)CCN(C)C |  | storage stability | human dried blood spots | 72 h, on ice, low QC level |  | recovery | 69.9%
CCN(CC)CC#CCNc1ccnc2cc(Cl)ccc12 | Salmonella typhimurium | mini-Ames test | TA98 | 125.0 µg/well, with rat liver S9 |  | mean revertants | 15 revertants/well
O=C(c1ccccc1)N1C(c2ccc(OCC3CCN(CCCF)C3)cc2)c2ccc(O)cc2CC12CC2 (stereo not shown) |  |  | C57BL/6J mouse, plasma | oral, 25 mg/kg |  | half-life | 3.84 h
CC(C)(O)c1ncc([S@](N)(=O)=NC(=O)Nc2c3c(cc4c2CCC4)CCC3)s1 |  | refers to: Cardiac disorders | healthy human volunteers | oral, 25 mg twice daily, 14 days, enteric-coated tablet |  | subjects with adverse events | 13%
C=C(NC(=O)c1csc(-c2nc3c(cc2O)-c2nc(cs2)C(=O)NC(C(C)O)C(=O)NC(=C(C)OC)c2nc(cs2)C(=O)NC2c4nc(cs4)C(=O)NC(COC(=O)c4c5c6c(cccc6n4O)COC(=O)C(OC4CC(C)(O)C(N(C)C)C(C)O4)C2OC5)c2nc-3cs2)n1)C(N)=O (stereo not shown) |  |  | cynomolgus monkey, both sexes, plasma | intravenous infusion, 1.5 mg/kg twice daily, 6 to 12 h, second dose |  | Tmax | 0.18 ± 0.16 h
COc1cccc(OC)c1-c1cc(C(=O)NC2(C(=O)O)C3CC4CC(C3)CC2C4)nn1-c1ccc(C(=O)N(C)CCOCCN(C)C(=O)[C@H](CCCCNC(=O)[C@H](CC(C)C)NC(=O)C2OC2C(=O)O)NC(=O)CN2CCN(CC(=O)[O-])CCN(CC(=O)[O-])CCN(CC(=O)[O-])CC2)cc1C(C)C.[177Lu+3] (mixture of isomers) |  |  | mouse, HT-29 xenograft | 24 h post injection, biodistribution | baseline: tumour over heart uptake | tumour-to-heart ratio | 7.53
COC(=O)C(C)n1nc(Cn2cc3cc(OCC[18F])c(Cl)cc3n2)c2ccccc2c1=O (racemic) |  |  | rat, brain | 150 min |  | radiometabolite | 33%
CN([O-])C(=O)CN1CCNCCN(CC(=O)N(C)[O-])CC1.[89Zr+4] |  |  | mouse, bone | intravenous, 4 h |  | tracer uptake | 0.93 %ID/g
CN1CCC[C@]1(C)/C=C/S(=O)(=O)NC(=O)Nc1c2c(cc3c1CCC3O)CCC2 (stereo partly shown) |  |  | human, plasma | oral, 12.5 mg twice daily of parent drug, day 14, metabolite of dosed drug |  | Tmax at second steady-state dose | 3.5 h
Fc1cncc(-c2ccc3[nH]c4ncnc(N[C@H]5CC[C@H](N6CCOCC6)CC5)c4c3c2)c1 |  |  | ICR mice, plasma | intravenous, 1 mg/kg |  | AUC(0-t) | 0.16 ± 0.122 µg·h/mL
O=C(O)CCCOc1ccc([18F])cc1-c1cc(-c2ccccc2C(F)(F)F)n(-c2ccccc2)n1 |  | OLINDA/EXM extrapolation from mouse | human adult, heart wall, highest organ | 370 MBq |  | absorbed radiation dose | 25.4 mGy

SMILES | tested on | test | test system | setting | how to read | quantity | value
NS(=O)(=O)c1c(F)c(F)c(SCCc2ccc(C(=O)O)cc2)c(F)c1F |  |  |  | sulfonamide group |  | pKa | 8.05
O=C(CN1CCN(CC(=O)NCc2ncccc2O)CCN(CC(=O)NCc2ncccc2O)CCN(CC(=O)NCc2ncccc2O)CC1)NCc1ncccc1O.[177Lu+3] |  |  | Sprague-Dawley rat, brain | intravenous (tail vein), dose not given, 2 h |  | tissue uptake | 0.001 ± 0.007 % injected dose/g
C=CC(=O)Nc1cc(Nc2nccc(-c3cn(C)c4ccccc34)n2)c(OC)cc1N(C)CCNC |  | storage stability | human dried blood spot | 30 d, -80 °C, LQC level |  | recovery | 99.3%
C=Cc1c(C)c2cc3nc(c(CC(=O)O)c4[nH]c(cc5nc(cc1[nH]2)C(C)=C5CC)c(C)c4C(=O)O)[C@@H](CCC(=O)OCCOCCOCCOC)[C@@H]3C |  | LC-MS | methanol-water 9:1 | 1 h, pH 2.0 |  | compound loss | 17%
C=CC(=O)Nc1cccc(Cn2ncc3cnc(Nc4cnn(CCOC)c4)nc32)c1 | EPHA7 human | binding, KINOMEscan |  | 100 nM | lower = stronger binding | percent of control | 100%
C=CC(=O)N1CCCC(n2c(=O)c3ncccc3n(Cc3ccc(Oc4ccccc4)cc3)c2=O)C1 (stereo not shown) |  |  | male BALB/c mouse, plasma | oral, 200 mg/kg, 15 min |  | concentration | 27.6 µg/mL
Cc1ccc(CN2C(=O)/C(=N\c3ccc(Cl)cc3Br)c3ccccc32)cc1 |  |  | mouse, blood | 200 mg/kg |  | haematocrit | 38.2 ± 0.67%
O=C(Nc1cnccc1-c1ccc([18F])cc1)c1ccnc(NC(=O)C2CC2)c1 |  |  | FVB/NJ mice (both sexes), muscle | intravenous, dose not given, 120 min, with: tariquidar 15 mg/kg i.v. pre-dose |  | SUV | 0.23
CCCC[C@H](NC(=O)CNC(=O)CNC(=O)[C@H](CCCCNC(=O)[C@H](CCN)NC(=O)C(C)c1ccc(CC(C)C)cc1)NC(=O)CN1CCN(CC(=O)O)CCN(CC(=O)O)CCN(CC(=O)O)CC1)C(=O)N[C@H]1CC(=O)NCCCC[C@@H](C(N)=O)NC(=O)[C@H](Cc2c[nH]c3ccccc23)NC(=O)[C@H](CCCNC(=N)N)NC(=O)[C@@H](Cc2ccccc2)NC(=O)[C@H](Cc2c[nH]cn2)NC1=O (stereo partly shown) [lutetium-177 labelled] |  |  | C57 mice, tumour | 2 h | baseline: blood | tumour-to-tissue ratio | 119
N=C(N)NCCC[C@@H]1NC(=O)[C@H](CO)NC(=O)[C@@H](NC(=O)[C@H](CO)NC(=O)[C@H](CO)NC(=O)[C@H](Cc2c[nH]c3ccccc23)NC(=O)CNC(=O)[C@H](CO)NC(=O)[C@@H](N)Cc2c[nH]c3ccccc23)CSSC[C@@H](C(=O)NCC(=O)O)NC(=O)[C@H](CO)NC1=O |  |  | patients, plasma | intravenous, 10 mg/kg, thrice weekly, geometric mean |  | volume of distribution (Vz) | 395 L
CCCCN1C(=O)c2cccc3c(NCCCCCCCCCCN4CCOCC4)ccc(c23)C1=O |  |  | methanol |  |  | fluorescence lifetime | 8.4 ns
COc1cccc(OC)c1-c1cc(C(=O)NC2(C(=O)O)C3CC4CC(C3)CC2C4)nn1-c1ccc(C(=O)N(C)CCCN(C)CCCN(C)C(=O)[C@H](CCCCNC(=O)[C@H](CC(C)C)NC(=O)C2OC2C(=O)O)NC(=O)CN2CCN(CC(=O)[O-])CCN(CC(=O)[O-])CCN(CC(=O)[O-])CC2)cc1C(C)C.[177Lu+3] (mixture of isomers) |  |  | mouse, HT-29 xenograft | 72 h post injection, biodistribution | baseline: tumour over heart uptake | tumour-to-heart ratio | 40.6
COCC1CN(C2CCN(c3cc(OC)c(Nc4ncc(Br)c(Nc5ccc6c(c5P(C)(C)=O)OCCO6)n4)cc3C)CC2)C1 |  | first-in-human trial | human | oral, 240 mg once daily | treatment-related | serious adverse events | 75%
NCCCC[C@H](NC(=O)[C@H](Cc1c[nH]c2ccccc12)NC(=O)[C@@H](N)Cc1c[nH]c2ccccc12)C(N)=O |  |  | DOPC vesicles | 2 h |  | Trp emission maximum | 357 nm
O=C(NS(=O)(=O)c1cccs1)c1cc2ccccc2n1Cc1ccc(Br)c2ccccc12 |  |  | KM mouse, chronic hyperuricaemia model | dose not given, day 13 |  | body weight | 31.6 g and 33.2 g and 28 g and 31.4 g and 35.4 g
CC(=O)N[C@@H](Cc1ccccc1)C(=O)N[C@@H](CC(C)C)C(=O)NCC(=O)N[C@H](C(=O)N[C@@H](CC(C)C)C(=O)N[C@@H](C)C(=O)N[C@@H](CC(C)C)C(=O)N[C@@H](CC(C)C)C(=O)NCC(=O)N[C@@H](Cc1ccc(O)cc1)C(=O)N[C@@H](CC(C)C)C(=O)N[C@@H](C)C(=O)N[C@H](C(=O)N[C@@H](CCCNC(=N)N)C(=O)N1CCC[C@H]1C(=O)N[C@@H](Cc1ccccc1)C(=O)N[C@@H](CC(C)C)C(=O)N1CCC[C@H]1C(=O)N[C@@H](CCCCN)C(=O)N[C@@H](CCCCN)C(=O)N[C@@H](CCCCN)C(=O)N[C@@H](CCC(N)=O)C(=O)N[C@@H](CCC(N)=O)C(=O)N[C@@H](CCCCN)C(N)=O)C(C)C)C(C)C |  | LC-MS | DOPC/DOPA vesicles with trypsin | 10 µM, 12 h, pH 7.2 |  | cleaved to intact ratio | 2.5 ± 1
O=C(Nc1cnccc1-c1ccc([18F])nc1)c1ccnc(NC(=O)C2CC2)c1 |  |  | FVB/NJ mice (both sexes), feces | intravenous, dose not given, 120 min, with: tariquidar 15 mg/kg i.v. pre-dose |  | SUV | 6.6
Cc1nc(N)nc2c1C(=O)N[C@@H](c1ccc(F)cc1-c1cccc(O[11CH3])n1)C2 |  | ex vivo biodistribution | mice, U87 subcutaneous xenograft, plasma | 60 min post-injection, baseline, vehicle pre-treatment |  | SUV | 0.3 ± 0.1
COC1CN([C@H]2CC[C@H]([C@@]3(C)Oc4c(Cl)cc(C(=O)NCc5c(SC)cc(C)[nH]c5=O)c(C)c4O3)CC2)C1 |  | RNA-seq, refers to: RFX2 | human, whole blood | dose not given, 24 h | baseline: pretreatment baseline | log2 fold change | 1.2
N#C[C@@H]1CC(F)(F)CN1C(=O)CNC(=O)c1ccnc2c(NC(=O)[C@H](CCCCNC(=O)CCOCCOCCOCCOCCOCCOCCNC(=O)CN3CCN(CC(=O)[O-])CCN(CC(=O)[O-])CCN(CC(=O)[O-])CC3)NC(=O)CCCc3ccc(I)cc3)cccc12.[177Lu+3] | U-87 MG tumour model |  | host not given, stomach | 4 h, tumour-bearing |  | tracer uptake | 1.14 %ID/g
